Values quoted from earlier work that unrelated publications cite.
Each line is one published result; not all experiments were run side by side. Numbers after ± are the reported error. In brackets after ≈: the same amount, converted by molar mass.
Sequence of UniProt P07333 (whole entry, looked up): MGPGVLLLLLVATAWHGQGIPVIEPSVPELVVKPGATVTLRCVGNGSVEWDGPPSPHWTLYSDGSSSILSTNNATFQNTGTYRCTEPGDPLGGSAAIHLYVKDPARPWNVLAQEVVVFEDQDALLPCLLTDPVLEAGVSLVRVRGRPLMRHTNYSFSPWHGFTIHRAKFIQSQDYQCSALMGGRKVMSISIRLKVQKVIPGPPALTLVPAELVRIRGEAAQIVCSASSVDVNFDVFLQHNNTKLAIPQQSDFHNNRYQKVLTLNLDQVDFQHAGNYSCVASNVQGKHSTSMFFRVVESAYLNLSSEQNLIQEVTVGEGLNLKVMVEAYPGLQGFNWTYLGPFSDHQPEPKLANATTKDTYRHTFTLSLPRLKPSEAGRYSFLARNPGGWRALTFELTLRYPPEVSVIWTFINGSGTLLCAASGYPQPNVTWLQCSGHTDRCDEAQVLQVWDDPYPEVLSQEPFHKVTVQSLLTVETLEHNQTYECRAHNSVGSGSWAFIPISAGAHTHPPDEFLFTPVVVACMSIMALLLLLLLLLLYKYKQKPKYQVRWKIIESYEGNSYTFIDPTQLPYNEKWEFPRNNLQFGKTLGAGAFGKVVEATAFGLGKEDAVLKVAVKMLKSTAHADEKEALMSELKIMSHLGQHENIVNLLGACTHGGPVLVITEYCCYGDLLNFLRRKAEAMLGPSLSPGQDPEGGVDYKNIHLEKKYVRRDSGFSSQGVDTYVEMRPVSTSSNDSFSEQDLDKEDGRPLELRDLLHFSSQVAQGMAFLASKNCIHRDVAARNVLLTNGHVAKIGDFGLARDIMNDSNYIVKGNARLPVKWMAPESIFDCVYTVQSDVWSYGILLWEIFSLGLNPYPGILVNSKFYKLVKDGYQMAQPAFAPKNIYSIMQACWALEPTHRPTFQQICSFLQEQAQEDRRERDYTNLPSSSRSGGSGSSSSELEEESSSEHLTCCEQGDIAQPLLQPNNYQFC
Sequence of UniProt Q9UPE1 (whole entry, looked up): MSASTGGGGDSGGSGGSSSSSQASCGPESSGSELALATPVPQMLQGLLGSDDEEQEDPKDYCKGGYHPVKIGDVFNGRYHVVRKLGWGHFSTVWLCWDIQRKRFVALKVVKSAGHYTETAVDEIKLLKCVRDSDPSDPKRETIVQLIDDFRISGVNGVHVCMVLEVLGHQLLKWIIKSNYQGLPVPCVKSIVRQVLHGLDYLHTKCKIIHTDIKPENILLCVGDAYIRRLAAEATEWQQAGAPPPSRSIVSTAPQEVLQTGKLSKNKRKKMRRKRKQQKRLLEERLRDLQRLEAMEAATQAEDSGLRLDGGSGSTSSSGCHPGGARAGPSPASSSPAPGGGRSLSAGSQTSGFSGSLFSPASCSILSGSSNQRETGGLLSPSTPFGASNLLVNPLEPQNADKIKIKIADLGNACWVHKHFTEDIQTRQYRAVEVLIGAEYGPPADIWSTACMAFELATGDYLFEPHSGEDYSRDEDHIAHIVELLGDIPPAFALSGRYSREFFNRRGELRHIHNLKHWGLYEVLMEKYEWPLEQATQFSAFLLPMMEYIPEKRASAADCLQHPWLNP

CCCCC(C)C(=O)O (stereo not shown)
EC10 (craniofacial deformation; zebrafish embryo; nominal concentration): > 1000 µM

CCCCCCCCCCCCCCCCOCCCOP(=O)(O)CO[C@H](CO)Cn1ccc(N)nc1=O
intracellular half-life improvement (baseline: cidofovir): 14 fold

Cc1ccsc1C(=CCCN1CCC[C@@H](C(=O)O)C1)c1sccc1C
protective index (mouse; i.p., subcutaneous PTZ seizure test): 30

Cc1c(C#N)cccc1[C@@H](C)Nc1nnc(C)c2cnc(N3CCOCC3)cc12
IC50 (MKN-74; 3D cell viability; 14 d): > 1 µM

CC1(C)S[C@@H]2[C@H](NC(=O)[C@H](N)c3ccccc3)C(=O)N2[C@H]1C(=O)O
MIC (Pseudomonas aeruginosa; clinical isolate RKI-No_402/14): > 16 µg/mL

COc1cc(NC(=O)CCN2CCC(OC(=O)Nc3ccccc3-c3ccccc3)CC2)c(Cl)cc1CNC[C@H](O)c1ccc(O)c2[nH]c(=O)ccc12
lung deposited fraction (human; inhaled): 0.26

CNC(C)C1CCC(N)C(OC2C(N)CC(N)C(OC3OCC(C)(O)C(NC)C3O)C2O)O1 (stereo not shown)
MIC (Pseudomonas aeruginosa; clinical isolate RKI-No_402/14): 8 µg/mL (≈ 16.8 µM)

Cc1cc(-c2nccc3c2ccn3CC(=O)Nc2ccc(-c3cnccn3)cn2)ccn1
dose with kidney tubular dilatation (rat): 60 mg/kg/day

Nc1nc(=O)n([C@@H]2C=C[C@H](CO)O2)cc1F
oral bioavailability (dog; dose not given): 50%

C[C@H]1COCCN1c1nc(-c2cnc(N)cc2C(F)F)nc(N2CCOCC2)n1
GI50 (RKO): 0.477 µM

O=C(Nc1ccccc1)c1cc([N+](=O)[O-])ccc1[76Br]
tumour uptake (nude mice, MDA-MB-435 xenograft, tumour; 2 h): 4 to 5 %ID/g

C=CC(=O)N1CCC([C@@H]2CCNc3c(C(N)=O)c(-c4ccc(Oc5ccccc5)cc4)nn32)CC1
AUC(0-8h) (human patients; oral, 320 mg once daily, day 8): 2280 ± 868 ng·h/mL

CN(C)C(=O)c1cc2cnc(Nc3ccc(N4CCNCC4)cn3)nc2n1C1CCCC1
adverse event incidence (item: vomiting; advanced solid tumour or lymphoma patients; dose not given, continuous dosing; baseline: patients): 21.1%

c1ccc2c(c1)ccc1ccccc12
metabolism rate (pooled human liver microsomes; 2.5 µM): 252 pmol/min/mg

Cn1cncc1[C@@](N)(c1ccc(Cl)cc1)c1ccc2c(c1)c(-c1cccc(Cl)c1)cc(=O)n2C
AUC(0-12 h) (adult patients, acute leukaemia; dose not given, steady state): 3520 ng·h/mL

CC(=O)CC(c1ccccc1)c1c(O)c2ccccc2oc1=O (stereo not shown)
plasma clearance (rat): 0.139 mL/min/kg

O=C(O)CN(CC(=O)O)CC(=O)O
protonation constant (log) (pH-potentiometry, item: logK1H; 0.15 M NaClO4; 25 °C): 9.22

CC#CC(=O)N1CC[C@@H](n2c(=O)n(-c3ccc(Oc4ccccc4)cc3)c3c(N)ncnc32)C1
plasma exposure (rat; concentration not given, added: fluconazole or voriconazole): increased

CN[C@@H](C)C(=O)N[C@H]1CN(S(=O)(=O)c2cccc(S(=O)(=O)N3CC[C@H]4CC[C@@H](C(=O)NC(c5ccccc5)c5ccccc5)N4C(=O)[C@@H](NC(=O)[C@H](C)NC)C3)c2)CC[C@H]2CC[C@@H](C(=O)NC(c3ccccc3)c3ccccc3)N2C1=O
cumulative faecal excretion unchanged (rat; dose not given, 0-48 h; baseline: dose): 94.1%

CO[C@@H](C)Cn1c(=O)n(C)c2cnc3ccc(-c4cncc(C(C)(C)O)c4)cc3c21
patients with related adverse event (item: grade ≥3 pruritus; cancer patients; dose not given, monotherapy): 2.1%

C=C1[C@H](CO)[C@@H](O)C[C@@H]1n1cnc2c(=O)[nH]c(N)nc21
oral bioavailability (rat; 10 mg/kg): 37 to 80%

CO[C@H]1/C=C/O[C@@]2(C)Oc3c(C)c(O)c4c(O)c(c(/C=N/N5CCN(C)CC5)c(O)c4c3C2=O)NC(=O)/C(C)=C\C=C\[C@H](C)[C@H](O)[C@@H](C)[C@@H](O)[C@@H](C)[C@H](OC(C)=O)[C@@H]1C
Cmax (rat, plasma; intravenous, 20 mg/kg): ~30 µM

COc1cc2c(Oc3ccc4[nH]c(C)cc4c3F)ccnc2cc1OCC1(N)CC1
AUC(0-42 days) (human; 12 mg/day, two cycles): 1470 ± 395 ng·h/mL

C=CC(=O)N1CCC(C(=O)NCC(=O)N2CCN(c3nc(-c4cnc(N)nc4C(F)F)nc(N4CCOCC4)n3)CC2)CC1
remaining activity (Macrophage colony-stimulating factor 1 receptor, autoinhibited (CSF1R, Homo sapiens, UniProt P07333); kinase activity; 1 µM): 20%

N#CCNC(=O)c1ccc(-c2ccnc(Nc3ccc(N4CCOCC4)cc3)n2)cc1
peripheral neuropathy incidence (patients with myelofibrosis; integrated phase III trials): 14.8%

Nc1cc(C(F)(F)F)c(-c2nc(N3CCOCC3)nc(N3CCOCC3)n2)cn1
remaining activity (SRPK3 (Homo sapiens, UniProt Q9UPE1); enzyme activity; 10 µM; baseline: untreated): 77%

COc1ccc2[nH]c([S+]([O-])Cc3ncc(C)c(OC)c3C)nc2c1 (stereo not shown)
AUC (human post-RYGB patients; oral tablet, 20 mg once daily, day 6, 1 months after surgery): 688 ng·h/mL

CN(C)C(=N)N=C(N)N
non-renal clearance (healthy human): 162 mL/min

Repeated from above:
COc1cc2c(Oc3ccc4[nH]c(C)cc4c3F)ccnc2cc1OCC1(N)CC1
AUC(0-42 days) (human; 12 mg/day, two cycles): 1470 ± 395 ng·h/mL
